Experimental data gathered from unrelated publications.
Each numbered part is a random draw from the data of one study; scales do not carry over between parts.
Chain of UniProt P30530 (whole entry, looked up): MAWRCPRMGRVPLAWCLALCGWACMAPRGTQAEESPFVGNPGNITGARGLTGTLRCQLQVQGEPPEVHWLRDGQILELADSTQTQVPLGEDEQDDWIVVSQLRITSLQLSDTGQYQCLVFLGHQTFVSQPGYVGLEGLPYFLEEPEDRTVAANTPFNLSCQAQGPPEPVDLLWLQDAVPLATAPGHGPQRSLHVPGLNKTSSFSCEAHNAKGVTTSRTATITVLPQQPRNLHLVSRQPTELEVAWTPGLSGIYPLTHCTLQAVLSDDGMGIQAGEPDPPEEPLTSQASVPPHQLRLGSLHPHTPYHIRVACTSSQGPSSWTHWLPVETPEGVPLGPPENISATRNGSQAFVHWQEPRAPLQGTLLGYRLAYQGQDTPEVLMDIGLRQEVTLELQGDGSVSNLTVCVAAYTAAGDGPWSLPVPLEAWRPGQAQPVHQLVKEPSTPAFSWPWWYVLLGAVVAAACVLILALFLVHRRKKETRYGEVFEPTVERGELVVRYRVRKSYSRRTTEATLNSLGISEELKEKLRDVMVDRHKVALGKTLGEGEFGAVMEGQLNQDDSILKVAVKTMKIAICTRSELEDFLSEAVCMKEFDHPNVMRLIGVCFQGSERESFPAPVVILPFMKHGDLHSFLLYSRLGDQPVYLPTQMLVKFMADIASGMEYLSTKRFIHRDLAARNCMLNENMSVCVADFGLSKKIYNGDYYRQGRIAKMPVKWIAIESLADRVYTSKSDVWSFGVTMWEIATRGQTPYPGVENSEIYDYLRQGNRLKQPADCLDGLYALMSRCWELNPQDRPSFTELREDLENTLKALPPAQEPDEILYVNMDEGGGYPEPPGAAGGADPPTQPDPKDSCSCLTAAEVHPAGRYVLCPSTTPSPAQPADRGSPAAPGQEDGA
Chain of UniProt Q9NRH2 (whole entry, looked up): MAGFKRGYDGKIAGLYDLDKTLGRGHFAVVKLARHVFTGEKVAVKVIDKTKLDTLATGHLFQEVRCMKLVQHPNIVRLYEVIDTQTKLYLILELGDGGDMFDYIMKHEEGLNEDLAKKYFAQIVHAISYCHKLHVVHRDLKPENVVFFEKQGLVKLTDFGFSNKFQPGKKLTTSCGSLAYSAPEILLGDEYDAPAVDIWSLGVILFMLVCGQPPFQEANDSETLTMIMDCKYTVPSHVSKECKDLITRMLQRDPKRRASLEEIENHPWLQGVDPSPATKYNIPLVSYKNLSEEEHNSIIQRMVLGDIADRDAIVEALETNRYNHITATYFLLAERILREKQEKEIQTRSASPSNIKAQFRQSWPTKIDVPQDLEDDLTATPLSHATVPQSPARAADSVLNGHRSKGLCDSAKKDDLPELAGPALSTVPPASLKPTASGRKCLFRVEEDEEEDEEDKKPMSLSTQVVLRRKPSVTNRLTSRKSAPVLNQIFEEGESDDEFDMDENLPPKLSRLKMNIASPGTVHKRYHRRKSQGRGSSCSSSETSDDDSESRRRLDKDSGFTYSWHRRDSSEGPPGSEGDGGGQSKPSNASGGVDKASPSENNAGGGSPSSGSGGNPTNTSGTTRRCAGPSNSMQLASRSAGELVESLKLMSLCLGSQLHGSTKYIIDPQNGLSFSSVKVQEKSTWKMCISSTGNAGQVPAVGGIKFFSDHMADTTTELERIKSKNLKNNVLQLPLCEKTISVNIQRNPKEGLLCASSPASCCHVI
Chain of UniProt O14920 (whole entry, looked up): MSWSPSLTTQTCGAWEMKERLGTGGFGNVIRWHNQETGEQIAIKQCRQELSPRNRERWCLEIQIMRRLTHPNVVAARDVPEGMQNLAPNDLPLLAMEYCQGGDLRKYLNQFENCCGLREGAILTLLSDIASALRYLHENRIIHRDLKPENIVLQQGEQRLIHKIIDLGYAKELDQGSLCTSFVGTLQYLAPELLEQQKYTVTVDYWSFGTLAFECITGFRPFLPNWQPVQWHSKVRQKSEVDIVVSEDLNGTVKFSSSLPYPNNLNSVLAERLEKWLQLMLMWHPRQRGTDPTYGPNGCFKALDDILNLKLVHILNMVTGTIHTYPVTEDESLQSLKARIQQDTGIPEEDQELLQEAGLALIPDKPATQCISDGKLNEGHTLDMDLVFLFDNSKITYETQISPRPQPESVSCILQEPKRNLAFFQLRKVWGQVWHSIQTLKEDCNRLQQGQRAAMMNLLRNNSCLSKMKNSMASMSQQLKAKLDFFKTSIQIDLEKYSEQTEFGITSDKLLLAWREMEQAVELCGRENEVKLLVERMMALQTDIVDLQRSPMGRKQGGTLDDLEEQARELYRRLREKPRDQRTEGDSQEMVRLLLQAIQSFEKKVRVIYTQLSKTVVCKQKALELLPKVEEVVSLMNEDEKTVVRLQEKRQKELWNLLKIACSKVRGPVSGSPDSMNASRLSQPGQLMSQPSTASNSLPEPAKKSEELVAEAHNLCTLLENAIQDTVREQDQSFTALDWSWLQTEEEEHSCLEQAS
Chain of UniProt P34947 (whole entry, looked up): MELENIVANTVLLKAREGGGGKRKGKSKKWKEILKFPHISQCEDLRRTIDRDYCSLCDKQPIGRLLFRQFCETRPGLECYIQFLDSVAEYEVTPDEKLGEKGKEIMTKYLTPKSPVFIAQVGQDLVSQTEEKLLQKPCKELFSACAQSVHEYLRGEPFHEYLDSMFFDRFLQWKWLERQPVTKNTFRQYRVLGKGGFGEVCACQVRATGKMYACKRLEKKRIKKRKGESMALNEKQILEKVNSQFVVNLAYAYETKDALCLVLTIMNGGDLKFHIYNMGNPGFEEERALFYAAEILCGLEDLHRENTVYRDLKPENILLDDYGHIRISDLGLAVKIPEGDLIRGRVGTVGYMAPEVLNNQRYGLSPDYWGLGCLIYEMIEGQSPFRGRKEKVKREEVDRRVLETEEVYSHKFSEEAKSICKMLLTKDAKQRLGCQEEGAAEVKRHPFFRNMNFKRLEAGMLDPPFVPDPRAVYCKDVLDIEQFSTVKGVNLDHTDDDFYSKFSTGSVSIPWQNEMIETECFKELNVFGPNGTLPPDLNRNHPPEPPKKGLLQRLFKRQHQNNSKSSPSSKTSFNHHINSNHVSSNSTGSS

Study 1 — effect on: cell-free assay; method: competition with immobilised ligand; tested at: 1 µM
SMILES: O=C(N1CCS(=O)(=O)CC1)N1C[C@H](c2ccc(OC(F)(F)F)cc2)C[C@H](c2nc(C3CC3)no2)C1
| target | remaining binding |
| --- | --- |
| EPHA6 (Homo sapiens, UniProt Q9UF33) | 100% |
| AXL (Homo sapiens, UniProt P30530) | 100% |
| CDK4 (Homo sapiens, UniProt P11802) | 18% |
| CDK15 (Homo sapiens, UniProt Q96Q40) | 100% |
| Receptor-type tyrosine-protein kinase FLT3, autoinhibited (FLT3, Homo sapiens, UniProt P36888) | 81% |
| IKBKB (Homo sapiens, UniProt O14920) | 77% |
| CDK9 (Homo sapiens, UniProt P50750) | 100% |
| Ribosomal protein S6 kinase alpha-2, N-terminal kinase domain (RPS6KA2, Homo sapiens, UniProt Q15349) | 100% |
| MET (Homo sapiens, UniProt P08581, M1250T) | 100% |
| DDR1 (Homo sapiens, UniProt Q08345) | 100% |

Study 2 — effect on: enzyme activity; action: inhibitor; tested at: 10 µM
Target: Calcium/calmodulin-dependent protein kinase type II subunit alpha (CAMK2A, Homo sapiens, UniProt Q9UQM7)
Chain of UniProt Q9UQM7 (whole entry, looked up): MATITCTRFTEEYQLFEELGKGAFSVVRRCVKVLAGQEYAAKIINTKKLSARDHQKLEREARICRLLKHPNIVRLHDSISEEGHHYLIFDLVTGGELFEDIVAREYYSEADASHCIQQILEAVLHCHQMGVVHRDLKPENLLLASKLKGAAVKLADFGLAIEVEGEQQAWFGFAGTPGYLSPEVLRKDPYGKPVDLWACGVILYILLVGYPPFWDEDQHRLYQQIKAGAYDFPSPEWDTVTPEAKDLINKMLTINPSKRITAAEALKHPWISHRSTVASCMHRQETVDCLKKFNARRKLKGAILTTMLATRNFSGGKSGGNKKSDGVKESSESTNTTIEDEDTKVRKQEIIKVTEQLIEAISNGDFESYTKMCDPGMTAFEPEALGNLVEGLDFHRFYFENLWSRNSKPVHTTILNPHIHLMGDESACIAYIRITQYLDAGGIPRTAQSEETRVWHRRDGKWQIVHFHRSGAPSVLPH
| SMILES | inhibition [%] |
| --- | --- |
| OCCOCCN1CCN(C(c2ccccc2)c2ccc(Cl)cc2)CC1 (centres unmarked) | -3 |
| c1cnc(N2CCN(Cc3ccc4c(c3)OCO4)CC2)nc1 | -1 |
| CC(=O)[C@]1(O)Cc2c(O)c3c(c(O)c2[C@@H](O[C@H]2C[C@H](N)[C@H](O)[C@H](C)O2)C1)C(=O)c1ccccc1C3=O | 2 |
| CC1(C)CC(=O)CC(C)(C)N1 | -18 |
| C=C(C)[C@H]1C=C[C@@](C)(O)CC1 | 2 |
| Cc1ncc(CO)c(C=O)c1O | -5 |
| COCCOC(=O)C1=C(C)NC(C)=C(C(=O)OC/C=C/c2ccccc2)C1c1cccc([N+](=O)[O-])c1 (centres unmarked) | 10 |
| CC[C@]1(O)C[C@@H]2CN(CCc3c([nH]c4ccccc34)[C@@](C(=O)OC)(c3cc4c(cc3OC)N(C)[C@H]3[C@@](O)(C(=O)OC)[C@H](OC(C)=O)[C@]5(CC)C=CCN6CC[C@]43[C@@H]65)C2)C1 | -8 |
| CC1=C(C/C=C(\C)CCC[C@H](C)CCC[C@H](C)CCCC(C)C)C(=O)c2ccccc2C1=O | 0 |
| COc1cc(C)c(/C=C/C(C)=C/C=C/C(C)=C/C(=O)O)c(C)c1C | -23 |
| COc1cc(O)cc(O)c1C(=O)C=Cc1ccccc1 | -37 |
| O=C(O)[C@H]1O[C@@H](Oc2c(-c3ccc(O)cc3)oc3cc(O)cc(O)c3c2=O)[C@H](O)[C@@H](O)[C@@H]1O | 48 |
| COc1cc(N)cn[n+]1-c1ccccc1 | 9 |
| CCCCCCCCCCCCCCC[C@@H](O)[C@@H](N)CO | -5 |
| O=C(/C=C/c1ccc(O)c2c1[C@H](C(=O)O[C@H](Cc1ccc(O)c(O)c1)C(=O)O)[C@@H](c1ccc(O)c(O)c1)O2)O[C@H](Cc1ccc(O)c(O)c1)C(=O)O | -3 |
| CCCCCCCC(=O)c1c(O)cc(O)cc1CC(=O)OCC | -17 |

Study 3 — effect on: enzyme activity; action: inhibitor; tested at: 0.5 µM; reference: control
Target: G protein-coupled receptor kinase 6 (GRK6, Homo sapiens, UniProt P43250)
Chain of UniProt P43250 (whole entry, looked up): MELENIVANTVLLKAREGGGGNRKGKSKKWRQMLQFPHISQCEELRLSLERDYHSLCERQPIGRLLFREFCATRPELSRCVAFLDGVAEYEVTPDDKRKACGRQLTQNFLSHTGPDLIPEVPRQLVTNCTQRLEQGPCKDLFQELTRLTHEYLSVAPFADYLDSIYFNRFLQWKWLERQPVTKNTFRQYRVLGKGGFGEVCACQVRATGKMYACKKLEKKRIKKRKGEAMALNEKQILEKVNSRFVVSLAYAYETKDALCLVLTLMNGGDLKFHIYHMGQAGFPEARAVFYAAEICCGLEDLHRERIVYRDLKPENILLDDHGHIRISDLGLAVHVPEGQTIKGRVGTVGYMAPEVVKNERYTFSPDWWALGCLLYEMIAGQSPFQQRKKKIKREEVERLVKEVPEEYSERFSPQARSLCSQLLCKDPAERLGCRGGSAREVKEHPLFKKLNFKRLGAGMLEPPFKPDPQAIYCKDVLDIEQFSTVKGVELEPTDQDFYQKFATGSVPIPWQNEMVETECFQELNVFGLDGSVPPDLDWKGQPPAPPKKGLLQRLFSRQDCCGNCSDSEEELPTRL
| Compound | remaining activity |
| --- | --- |
| CC#CC(=O)Nc1cc2c(Nc3ccc(F)c(Cl)c3)ncnc2cn1 | 104% |
| CSc1nc(-c2ccnc(N[C@@H](C)c3ccccc3)c2)c(-c2ccc(F)cc2)[nH]1 (racemic) | 79.8% |
| Nc1ncnc2c1cnn2-c1ccccc1 | 92.3% |
| COc1cc(Nc2c(C#N)cnc3cc(OCCCN4CCN(C)CC4)c(OC)cc23)c(Cl)cc1Cl | 99.5% |
| NC(=O)c1ccc(N(C(N)=O)c2c(F)cccc2F)nc1-c1ccc(F)cc1F | 97.1% |
| O=S(=O)(NCCNC/C=C/c1ccc(Br)cc1)c1cccc2cnccc12 | 93.5% |
| CCCC(=O)Oc1ccc2[nH]c(C(=O)c3cc4ccccc4[nH]3)cc2c1 | 95.8% |
| Oc1ccc(Nc2nc(-c3ccc(Cl)cc3)cs2)cc1 | 100% |
| CC(C)(C)n1nc(Cc2cccc3ccccc23)c2c(N)ncnc21 | 103% |
| N#CC(=C(N)Sc1ccc(N)cc1)c1ccccc1C(F)(F)F | 100% |
| O=C1Cc2c([nH]c3ccc([N+](=O)[O-])cc23)-c2ccccc2N1 | 93.8% |
| COc1ccc(S(=O)(=O)N(CCO)c2ccccc2CN(C)CC=Cc2ccc(Cl)cc2)cc1 | 106% |
| Fc1ccc(-c2nc3n(c2-c2ccncc2)CCS3)cc1 | 103% |
| Cc1ccc(NC2=CC(=O)c3sc(C)nc3C2=O)cc1 | 96.8% |
| CC[n+]1c(/C=C/N(C)c2ccccc2)n(-c2ccccc2)c2ccc(-c3nc4ccccc4s3)cc21 | 98.9% |
| O=C1NC(=O)C(c2c[nH]c3ccccc23)=C1c1c[nH]c2ccccc12 | 101% |
| Cc1cc(Nc2nc(-c3ccccc3)nc3ccccc23)n[nH]1 | 75.8% |
| CC(=O)c1ccc(N2CCOCC2)cc1O | 100% |
| Nc1nc(Nc2ccc(S(N)(=O)=O)cc2)nn1C(=O)c1c(F)cccc1F | 77.2% |
| Cc1cncc2cccc(S(=O)(=O)N3CCCN(C(=O)CN)C[C@@H]3C)c12 | 85.5% |

Study 4 — effect on: enzyme activity; tested at: 5 µM
Structure (SMILES): O=C(Nc1cnn(-c2csc(C(=O)NC3COC3)c2)c1)Nc1c(F)cccc1Cl
| target | action | reference | remaining activity |
| --- | --- | --- | --- |
| Cyclin-dependent kinase 2, with cyclin O (CDK2, Homo sapiens, UniProt P24941) | inhibitor | – | 94.1% |
| MET (Homo sapiens, UniProt P08581) | – | untreated control | 84.2% |
| TAOK3 (Homo sapiens, UniProt Q9H2K8) | – | untreated control | 88% |
| PTK2B (Homo sapiens, UniProt Q14289) | – | untreated control | 89.7% |
| SNRK (Homo sapiens, UniProt Q9NRH2) | inhibitor | – | 98.8% |
| IRAK4 (Homo sapiens, UniProt Q9NWZ3) | – | untreated control | 97% |
| LRRK2 (Homo sapiens, UniProt Q5S007) | – | untreated control | 90.2% |
| GRK5 (Homo sapiens, UniProt P34947) | – | untreated control | 101% |
| Cyclin-dependent kinase 6, with cyclin D3 (CDK6, Homo sapiens, UniProt Q00534) | – | untreated control | 92.4% |
| TAOK2 (Homo sapiens, UniProt Q9UL54) | – | untreated control | 84.7% |

Some of these lines once more (study 2):
| SMILES | inhibition [%] |
| --- | --- |
| OCCOCCN1CCN(C(c2ccccc2)c2ccc(Cl)cc2)CC1 (centres unmarked) | -3 |
| c1cnc(N2CCN(Cc3ccc4c(c3)OCO4)CC2)nc1 | -1 |
| CC(=O)[C@]1(O)Cc2c(O)c3c(c(O)c2[C@@H](O[C@H]2C[C@H](N)[C@H](O)[C@H](C)O2)C1)C(=O)c1ccccc1C3=O | 2 |
| CC1(C)CC(=O)CC(C)(C)N1 | -18 |
| C=C(C)[C@H]1C=C[C@@](C)(O)CC1 | 2 |
| Cc1ncc(CO)c(C=O)c1O | -5 |
